Assay results gathered from unrelated publications.
Numbered parts are unrelated; each lists some results of a single study. Substitutions count along the parent as printed.

Study 1
Target: Histone acetyltransferase KAT6A, winged helix 1, GST fusion (KAT6A, Homo sapiens, UniProt Q92794, residues 1-85)
Technique: protein binding microarray
Form: double-stranded DNA, one strand shown
Matrix: in vitro
Concentration: not given
Setting: 8-mer, flanks averaged, mean of 2 arrays, mostly near background
Relative to: not given
Direction: higher = stronger binding
Construct (chain): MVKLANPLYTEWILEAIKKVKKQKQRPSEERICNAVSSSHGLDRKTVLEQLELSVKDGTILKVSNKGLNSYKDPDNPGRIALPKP
| Sequence | E-score |
| --- | --- |
| GCACTCCC | 0.116 |
| TCCCTACA | -0.0642 |
| GGTCTAAC | -0.046 |
| CCAACAAC | -0.229 |
| ATAAAATG | -0.187 |
| GGATTTTA | -0.0717 |
| AGGCTATA | -0.101 |
| CGAAGTAA | -0.0647 |

Study 2
Target: Interferon regulatory factor 7, full length, phosphomimetic (IRF7, Homo sapiens, UniProt Q92985, residues 1-503, S101K/S471D/S472D/S475D/S476D/S477D/S483D/S484D/S487D)
Technique: protein-binding microarray
Form: double-stranded DNA, one strand shown
Matrix: in vitro
Concentration: 250 nM
Setting: 60-bp whole probe
With: salmon DNA 0.4 mg/ml
Relative to: random background probes
Direction: higher = stronger binding
Constant ends, left off below: GCCTAGCAC … GTCTTGATTCGCTTGACGCTGCTG
Residues (chain): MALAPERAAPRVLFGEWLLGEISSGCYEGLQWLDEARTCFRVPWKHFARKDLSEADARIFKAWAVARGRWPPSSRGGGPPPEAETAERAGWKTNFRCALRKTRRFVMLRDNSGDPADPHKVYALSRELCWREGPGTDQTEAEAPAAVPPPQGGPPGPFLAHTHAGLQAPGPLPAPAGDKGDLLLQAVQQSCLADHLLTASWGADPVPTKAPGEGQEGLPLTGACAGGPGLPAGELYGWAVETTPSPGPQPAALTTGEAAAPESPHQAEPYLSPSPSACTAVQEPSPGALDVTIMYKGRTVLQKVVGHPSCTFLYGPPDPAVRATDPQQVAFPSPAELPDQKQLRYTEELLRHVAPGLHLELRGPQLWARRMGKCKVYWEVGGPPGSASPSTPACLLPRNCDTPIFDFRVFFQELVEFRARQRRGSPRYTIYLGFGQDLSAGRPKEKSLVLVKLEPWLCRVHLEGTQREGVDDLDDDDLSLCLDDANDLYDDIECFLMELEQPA
| Sequence | log fluorescence [z-score] |
| --- | --- |
| GACGATATCAGTCTAGAGACGTGCTAG | -0.329 |
| TTAGTTCTCCTACTGCTTTAGTGCTAG | 0.743 |
| CCATTCTTGGGACTCACCTGGTGCTAG | 1.35 |
| GACGGTCTACTTATCCTGACGTGCTAG | -0.0692 |
| TTAGACATCGGGTTTCGATTAGTGCTA | 6.42 |
| TCATATTTGCAACATCCCACTGTGCTA | 0.686 |
| TTCGATTTCAGTTCCGATTAGTGCTAG | 1.75 |
| TTAGAACTGGGGTATCGAGTAGTGCTA | -0.493 |

Study 3
Target: NFE2, bZIP domain (human)
Technique: DHFR protein complementation
Matrix: yeast
Setting: single substitutions, most at no-binding floor
Relative to: wild-type JUN-FOS pair
Direction: higher = stronger binding
Starting sequence: JUN, bZIP domain (human); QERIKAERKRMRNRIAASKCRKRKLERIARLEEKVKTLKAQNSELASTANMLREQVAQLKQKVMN; partner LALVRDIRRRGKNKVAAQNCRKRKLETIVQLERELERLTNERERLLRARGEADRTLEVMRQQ
| Variant | binding fitness [natural log] |
| --- | --- |
| A46N | -1.51 |
| A46G | -1.45 |
| K34L | -1.25 |
| S47H | -1.3 |
| A57Q | -1.49 |
| N42K | -1.45 |
| E32K | -1.4 |
| N42I | -1.52 |

Single results of other studies
| SMILES | cell line | concentration | time | measurement | value |
| --- | --- | --- | --- | --- | --- |
| NC(=O)N1c2ccccc2CC(=O)c2ccccc21 | A-375 | 100 µM | 36 h | viability | 40.9% |

Repeated from above (study 2):
| Sequence | log fluorescence [z-score] |
| --- | --- |
| TTAGTTCTCCTACTGCTTTAGTGCTAG | 0.743 |
| CCATTCTTGGGACTCACCTGGTGCTAG | 1.35 |
